Measured values gathered from unrelated publications.
Protocols differ between the studies behind these lines. Values joined by “and” are separate records of one study, mostly repeats; a detail may differ. ± gives the spread as reported.
Cell line: MDCK

Structure (SMILES)	observed	concentration	time	pH	notes	quantity	result
Cn1cc(-c2cccc(N3CCn4c(cc5c4CCCC5)C3=O)c2CO)cc(Nc2ccncn2)c1=O		10 µM	3 h			apparent permeability A-B	10.2 ×10⁻⁶ cm/s
O=C1O[C@H]([C@@H](O)Cn2ccnn2)C(OCc2ccccc2)=C1OCc1ccccc1	cell morphology					minimum cytotoxic concentration	> 100 µM
C[C@@H]1COCCN1c1nc(-c2nnc(N)s2)nc2c1C[C@@H]1COCCN21		1 µM	20 (unit not given)			Papp B to A	16.4 ×10⁻⁶ cm/s
COc1cc(N2CCC(N3CCN(C)CC3)CC2)ccc1Nc1ncc(Cl)c(Nc2ccccc2P(C)(C)=O)n1						Papp	2.57 ×10⁻⁶ cm/s
Nc1cc(C(F)(F)F)c(-c2nc(N3CCOCC3)nc(N3CCOCC3)n2)cn1		1 µM	20 (unit not given)			Papp B to A	129 ×10⁻⁶ cm/s
CC(=O)Nc1ccc(O)cc1	permeability basolateral to apical	1 µM	90 min	pH 7.4 apical to 7.4 basolateral		Papp	10.5 ×10⁻⁶ cm/s and 14.6 ×10⁻⁶ cm/s
Cc1c(-c2cc(Nc3ccncn3)c(=O)n(C)c2)cccc1N1CCc2c(sc3c2CCCC3)C1=O		10 µM	3 h			apparent permeability A-B	13.5 ×10⁻⁶ cm/s
C[C@@H]1COCCN1c1nc(-c2cnc(N)cn2)nc2c1C[C@@H]1COCCN21		1 µM	20 (unit not given)			Papp A to B	55.9 ×10⁻⁶ cm/s
Cn1cc(-c2cccc(N3CCOc4cc(C(C)(C)C)ccc4C3=O)c2CO)cc(Nc2ccncn2)c1=O		10 µM	3 h			apparent permeability A-B	6 ×10⁻⁶ cm/s
CC(N)C12CC3CC(CC(C3)C1)C2 (centres unmarked)	cell morphology					minimum cytotoxic concentration	> 200 µM
C[C@@H]1COCCN1c1nc(-c2cnc(N)c(C(F)(F)F)c2)nc2c1C[C@@H]1COCCN21		1 µM	20 (unit not given)			Papp B to A	137 ×10⁻⁶ cm/s
CCn1c(=O)c2c(nc(/C=C/c3ccc(OC)c(OC)c3)n2C)n(CC)c1=O		1 µM	90 min	pH 7.4 apical, 7.4 basolateral	basolateral to apical	mass recovery	88 ± 12%
Cn1cc(-c2cccc(N3CCc4cc(C(C)(C)C)ccc4C3=O)c2CO)cc(Nc2ccncn2)c1=O		10 µM	3 h			apparent permeability B-A	1.6 ×10⁻⁶ cm/s
NC(=O)c1ncn([C@@H]2O[C@H](CO)[C@@H](O)[C@H]2O)n1	cell morphology					minimum cytotoxic concentration	> 100 µM
CC(C)n1nccc1-c1ncccc1COc1cccc(O)c1C=O		1 µM	90 min	pH 7.4 apical, 7.4 basolateral		Papp A to B	23.5 ×10⁻⁶ cm/s and 32 ×10⁻⁶ cm/s
COCCc1ccc(OCC(O)CNC(C)C)cc1 (centres unmarked)	permeability					Papp	53.5 ± 6.05 ×10⁻⁶ cm/s
C[C@@H](c1ncncc1F)[C@](O)(Cn1cncn1)c1ccc(F)cc1F		1 µM	90 min	pH 7.4 apical, 7.4 basolateral	basolateral to apical	mass recovery	108 ± 6%
CC(=O)Nc1ccc(O)cc1						Papp	22.8 ×10⁻⁶ cm/s
Cn1cc(-c2cccc(N3CCc4c(sc5c4CCCC5)C3=O)c2CO)cc(Nc2ccncn2)c1=O		10 µM	3 h			apparent permeability A-B	6.6 ×10⁻⁶ cm/s
Cc1cnc(Nc2ccc(OCCN3CCCC3)cc2)nc1Nc1cccc(S(=O)(=O)NC(C)(C)C)c1	permeability basolateral to apical	1 µM	90 min	pH 6.5 apical to 7.4 basolateral		Papp	1.34 ×10⁻⁶ cm/s and 0.61 ×10⁻⁶ cm/s

A few entries again:
Structure (SMILES)	observed	concentration	time	pH	notes	quantity	result
Nc1cc(C(F)(F)F)c(-c2nc(N3CCOCC3)nc(N3CCOCC3)n2)cn1		1 µM	20 (unit not given)			Papp B to A	129 ×10⁻⁶ cm/s
CC(=O)Nc1ccc(O)cc1	permeability basolateral to apical	1 µM	90 min	pH 7.4 apical to 7.4 basolateral		Papp	10.5 ×10⁻⁶ cm/s and 14.6 ×10⁻⁶ cm/s
